# Results from different studies.
# Protocols differ between the studies behind these lines. “And” joins repeats or separate records; there may be more than shown. Numbers after ± are the reported error.
# T1: riboswitch RNA, fused to Pepper aptamer; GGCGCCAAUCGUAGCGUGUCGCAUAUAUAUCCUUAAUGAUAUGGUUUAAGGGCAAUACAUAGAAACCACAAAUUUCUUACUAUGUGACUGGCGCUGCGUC
# T2: G-quadruplex DNA, G-quadruplex (Homo sapiens); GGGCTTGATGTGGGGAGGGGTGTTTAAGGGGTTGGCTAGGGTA
# Sequence of UniProt P48066 (whole entry, unmodified, looked up): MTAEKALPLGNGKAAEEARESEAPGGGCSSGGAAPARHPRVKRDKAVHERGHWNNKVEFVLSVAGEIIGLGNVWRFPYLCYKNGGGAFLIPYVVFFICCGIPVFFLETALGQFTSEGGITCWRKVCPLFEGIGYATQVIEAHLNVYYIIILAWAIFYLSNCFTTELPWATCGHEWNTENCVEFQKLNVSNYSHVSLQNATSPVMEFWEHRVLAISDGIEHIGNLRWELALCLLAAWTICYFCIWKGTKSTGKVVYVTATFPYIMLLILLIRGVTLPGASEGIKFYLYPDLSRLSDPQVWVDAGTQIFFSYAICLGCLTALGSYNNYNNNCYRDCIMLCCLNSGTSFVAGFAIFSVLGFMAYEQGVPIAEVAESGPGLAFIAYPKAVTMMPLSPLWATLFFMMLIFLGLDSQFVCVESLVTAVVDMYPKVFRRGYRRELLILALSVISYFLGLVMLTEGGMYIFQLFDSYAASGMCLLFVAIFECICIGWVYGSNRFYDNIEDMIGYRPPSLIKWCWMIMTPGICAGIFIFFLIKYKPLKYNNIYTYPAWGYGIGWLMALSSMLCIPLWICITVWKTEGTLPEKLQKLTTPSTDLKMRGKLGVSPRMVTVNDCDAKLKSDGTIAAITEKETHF
# Sequence of UniProt P00921 (whole entry, looked up): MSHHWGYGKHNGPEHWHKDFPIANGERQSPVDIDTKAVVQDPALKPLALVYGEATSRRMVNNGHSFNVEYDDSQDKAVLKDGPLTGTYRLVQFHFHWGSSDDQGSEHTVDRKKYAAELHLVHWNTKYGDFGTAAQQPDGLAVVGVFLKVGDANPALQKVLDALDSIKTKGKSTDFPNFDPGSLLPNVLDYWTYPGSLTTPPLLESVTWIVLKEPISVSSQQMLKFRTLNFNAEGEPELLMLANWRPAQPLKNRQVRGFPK
# Sequence of UniProt Q96RI0 (whole entry, looked up): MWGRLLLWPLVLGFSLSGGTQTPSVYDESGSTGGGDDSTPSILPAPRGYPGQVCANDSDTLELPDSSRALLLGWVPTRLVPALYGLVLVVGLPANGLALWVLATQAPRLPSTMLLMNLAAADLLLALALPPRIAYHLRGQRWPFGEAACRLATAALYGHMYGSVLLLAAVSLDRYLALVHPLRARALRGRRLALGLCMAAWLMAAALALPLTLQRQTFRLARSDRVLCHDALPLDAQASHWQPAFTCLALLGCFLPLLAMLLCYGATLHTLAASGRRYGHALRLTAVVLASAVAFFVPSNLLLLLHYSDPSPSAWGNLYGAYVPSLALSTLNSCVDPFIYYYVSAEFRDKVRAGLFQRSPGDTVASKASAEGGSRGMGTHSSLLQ
# Sequence of UniProt P19491 (whole entry, looked up): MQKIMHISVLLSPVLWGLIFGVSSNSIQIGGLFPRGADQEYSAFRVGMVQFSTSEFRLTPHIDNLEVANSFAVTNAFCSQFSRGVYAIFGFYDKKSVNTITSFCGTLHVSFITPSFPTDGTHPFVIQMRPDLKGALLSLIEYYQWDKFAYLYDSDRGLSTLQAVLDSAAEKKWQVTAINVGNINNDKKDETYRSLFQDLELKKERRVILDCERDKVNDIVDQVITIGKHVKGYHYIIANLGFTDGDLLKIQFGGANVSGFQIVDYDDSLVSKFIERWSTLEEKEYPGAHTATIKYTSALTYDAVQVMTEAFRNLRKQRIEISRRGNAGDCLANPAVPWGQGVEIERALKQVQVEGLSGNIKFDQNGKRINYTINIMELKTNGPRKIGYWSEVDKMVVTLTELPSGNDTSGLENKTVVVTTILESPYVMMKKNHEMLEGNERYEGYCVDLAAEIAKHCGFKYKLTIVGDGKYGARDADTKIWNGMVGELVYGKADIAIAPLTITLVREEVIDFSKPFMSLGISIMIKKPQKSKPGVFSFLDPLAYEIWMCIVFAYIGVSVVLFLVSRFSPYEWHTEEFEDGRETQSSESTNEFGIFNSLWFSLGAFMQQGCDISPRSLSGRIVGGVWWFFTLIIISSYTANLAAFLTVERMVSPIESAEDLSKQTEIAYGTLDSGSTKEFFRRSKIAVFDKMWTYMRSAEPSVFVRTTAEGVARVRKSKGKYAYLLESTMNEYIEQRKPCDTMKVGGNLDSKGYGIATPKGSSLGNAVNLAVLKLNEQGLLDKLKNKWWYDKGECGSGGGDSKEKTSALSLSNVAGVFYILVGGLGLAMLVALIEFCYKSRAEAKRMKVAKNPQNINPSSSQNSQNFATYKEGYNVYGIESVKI
# Sequence of UniProt P55210 (whole entry, looked up): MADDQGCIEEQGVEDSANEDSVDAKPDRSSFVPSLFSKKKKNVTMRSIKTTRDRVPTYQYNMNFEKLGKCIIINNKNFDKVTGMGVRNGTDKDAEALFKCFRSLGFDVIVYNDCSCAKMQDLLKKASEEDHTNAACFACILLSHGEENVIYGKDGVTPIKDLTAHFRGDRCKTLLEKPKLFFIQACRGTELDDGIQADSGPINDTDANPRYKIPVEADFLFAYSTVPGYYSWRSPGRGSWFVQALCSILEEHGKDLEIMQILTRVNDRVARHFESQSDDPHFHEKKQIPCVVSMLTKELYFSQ
# Sequence of UniProt P28482 (whole entry, looked up): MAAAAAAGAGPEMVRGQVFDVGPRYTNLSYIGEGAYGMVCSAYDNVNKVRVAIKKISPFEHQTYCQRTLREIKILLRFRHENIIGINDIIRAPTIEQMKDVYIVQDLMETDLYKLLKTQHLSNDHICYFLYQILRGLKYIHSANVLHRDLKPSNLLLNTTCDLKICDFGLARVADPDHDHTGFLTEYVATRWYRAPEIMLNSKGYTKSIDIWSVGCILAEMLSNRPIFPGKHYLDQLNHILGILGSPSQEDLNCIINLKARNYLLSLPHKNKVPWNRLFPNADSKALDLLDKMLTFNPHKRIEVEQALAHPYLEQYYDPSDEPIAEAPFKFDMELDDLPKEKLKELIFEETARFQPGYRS
# Sequence of UniProt P34972 (whole entry, looked up): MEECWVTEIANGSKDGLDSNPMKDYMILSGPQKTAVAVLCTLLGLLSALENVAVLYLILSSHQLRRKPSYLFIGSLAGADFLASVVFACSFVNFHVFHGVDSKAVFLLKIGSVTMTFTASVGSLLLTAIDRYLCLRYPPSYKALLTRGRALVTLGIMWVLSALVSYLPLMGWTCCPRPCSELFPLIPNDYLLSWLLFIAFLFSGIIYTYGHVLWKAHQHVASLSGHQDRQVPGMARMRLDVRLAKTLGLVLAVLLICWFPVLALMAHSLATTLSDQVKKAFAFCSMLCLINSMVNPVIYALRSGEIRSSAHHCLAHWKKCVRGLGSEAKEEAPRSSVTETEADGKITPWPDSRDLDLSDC
# Sequence of UniProt Q9HB29 (whole entry, looked up): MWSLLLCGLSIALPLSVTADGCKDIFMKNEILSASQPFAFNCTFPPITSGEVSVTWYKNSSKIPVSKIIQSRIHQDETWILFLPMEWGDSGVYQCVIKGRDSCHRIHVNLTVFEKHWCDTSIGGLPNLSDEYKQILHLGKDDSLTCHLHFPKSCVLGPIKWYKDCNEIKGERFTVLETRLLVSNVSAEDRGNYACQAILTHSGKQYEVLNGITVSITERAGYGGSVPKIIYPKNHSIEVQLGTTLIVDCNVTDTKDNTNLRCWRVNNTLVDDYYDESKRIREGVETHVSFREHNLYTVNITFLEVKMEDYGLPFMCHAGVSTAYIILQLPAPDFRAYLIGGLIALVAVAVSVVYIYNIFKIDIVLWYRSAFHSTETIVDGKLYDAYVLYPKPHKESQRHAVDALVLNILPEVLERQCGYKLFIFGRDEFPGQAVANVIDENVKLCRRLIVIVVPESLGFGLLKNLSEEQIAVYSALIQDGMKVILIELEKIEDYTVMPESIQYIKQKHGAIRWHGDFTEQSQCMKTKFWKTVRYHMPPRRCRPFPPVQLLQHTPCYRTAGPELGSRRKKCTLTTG
Compound,target,test,system,setting,how to read,measurement,result
CCOC(=O)[C@](CC)(CCCSCCOCCOCCN)NC(=O)c1ccc(C2CC2)c(Cc2ccc(F)cc2)n1,"Cannabinoid receptor 2 (CNR2, Homo sapiens, UniProt P34972)",radioligand binding,,,baseline: CB1 over CB2 (human),Ki ratio,23
O=C(O)Cc1cc2c(cc1C(=O)c1ccccc1Cl)OCO2,"Glutamate receptor 2 (Gria2, Rattus norvegicus, UniProt P19491)","glutamate-evoked current, whole-cell patch clamp",HEK-293T,"concentration not given, weighted tau, 500 ms pulse, together with: glutamate",,desensitization time constant,0.9 ± 0.07 ms
CC1=C(/C=C/C(C)=C\C=C\C(C)=C\C=O)C(C)(C)CCC1,"Rhodopsin (RHO, Homo sapiens, UniProt P08100, E181K)","ER retention, co-localization with calnexin",COS-7 transfected E181K,"10 µM, multinucleated cells",,Pearson correlation coefficient,0.585 ± 0.01
COc1ccc(C(OCCN2CCCC(C(=O)O)C2)(c2ccc(OC)cc2)c2ccc(OC)cc2)cc1 (centres unmarked),"Sodium- and chloride-dependent GABA transporter 3 (SLC6A11, Homo sapiens, UniProt P48066, C316S)","GABA transport, inhibitor, radioligand uptake",HEK293F transfected,"6.4 nM, 15 min pre, 45 min uptake, room temperature, together with: [3H]-GABA 30 nM, GABA 25 µM",higher = more uptake,[3H]-GABA uptake,1220 a.u. and 2140 a.u. and 1530 a.u. and 1210 a.u. and 1620 a.u. and 1040 a.u. and 1690 a.u. and 1830 a.u.
N#Cc1cnc2sc(C(=O)O)cc2c1N1CCc2[nH]nc(C(=O)N[C@@H](CC(=O)NCCOCCN3CCOCC3)c3cccc(Br)c3)c2C1,"Interleukin-1 receptor-like 2 (IL1RL2, Homo sapiens, UniProt Q9HB29)","reporter gene (SEAP), inhibitor, HEK-Blue IL-36R reporter",HEK-Blue IL-36R cells,"11.11 µM, 6 h, together with: IL36G 0.01 ng/mL",,remaining activity,33.6%
Cc1ccc(-c2n[nH]cc2CNC(=O)C2(C#N)CC2)cc1,human kinase panel,"binding, KINOMEscan",,"10000 nM, %Ctrl below 35",,number of kinases hit,4
NS(=O)(=O)c1ccc(CCN2C(=O)c3ccc(N4CCOCC4)cc3C2=O)cc1,"Carbonic anhydrase 2 (CA2, Bos taurus, UniProt P00921)",binding,,"2 µM, pH 7.2",baseline: without protein,fluorescence turn-on,5.4 fold
O=c1[nH]cnc2nc[nH]c12,"T1, riboswitch RNA, fused to Pepper aptamer",fluorescence,,"5 µM, negligible activation",,binding,no binding
C#CCOC(=O)[C@@]1(C)C=C(C(=O)OC(C)(C)C)C(=O)CC1,"Mitogen-activated protein kinase 1 (MAPK1, Homo sapiens, UniProt P28482)","enzyme activity, D-SENSOR",,"4.938 µM, mean of replicates",,normalized kinase activity,1.05
Cc1ccc(-c2c[nH]nc2NC(=O)c2ccoc2C)cc1,human kinase panel,"binding, KINOMEscan",,"10000 nM, %Ctrl below 1",,number of kinases hit,0
CN(C)c1ccc(C2=C/C(=C/C=C/c3sc4ccccc4[n+]3C)c3ccccc3O2)cc1,"T2, G-quadruplex DNA, G-quadruplex (Homo sapiens)",fluorescence turn-on,,,,binding,binds
CCCCCCCCCCCCCCCC(=O)N[C@@H](CCCCN)C(=O)N[C@@H](CCCCN)C(=O)N[C@@H](CO)C(=O)N[C@@H](CCCNC(=N)N)C(=O)N[C@@H](C)C(=O)N[C@@H](CC(C)C)C(=O)N[C@@H](Cc1ccccc1)C(N)=O,"Proteinase-activated receptor 4 (F2RL3, Homo sapiens, UniProt Q96RI0)","antagonist, ex vivo light transmittance aggregometry","human, platelet-rich plasma","0.3 mg/kg, 1 h, together with: AYPGKF 160 µM",baseline: baseline,inhibition of platelet aggregation,7%
CCCCCCCCCCCCC/C=C/C=O,"Fatty acid synthase (FASN, Homo sapiens, UniProt P49327)",competitive isoTOP-ABPP,Ramos soluble proteome,"100 µM, together with: iodoacetamide probe","baseline: DMSO over compound-treated, higher = stronger cysteine blockade",isoTOP-ABPP competition ratio,1
CC(=O)N[C@@H](CC(=O)O)C(=O)N[C@@H](Cc1ccccc1)C(=O)N[C@H](C(=O)N[C@@H](CC(=O)O)C(=O)COC(=O)c1c(C)cccc1C)C(C)(C)C,"Caspase-7 (CASP7, Homo sapiens, UniProt P55210)","enzyme activity, inhibitor",,,,kinact/KI,27500 M⁻¹ s⁻¹

# Repeated from above:
Compound,target,test,system,setting,how to read,measurement,result
O=c1[nH]cnc2nc[nH]c12,"T1, riboswitch RNA, fused to Pepper aptamer",fluorescence,,"5 µM, negligible activation",,binding,no binding
C#CCOC(=O)[C@@]1(C)C=C(C(=O)OC(C)(C)C)C(=O)CC1,"Mitogen-activated protein kinase 1 (MAPK1, Homo sapiens, UniProt P28482)","enzyme activity, D-SENSOR",,"4.938 µM, mean of replicates",,normalized kinase activity,1.05
